Experimental data pooled from the literature.
Protocols differ between the studies behind these lines. Several values in a cell are separate wells, animals, samples, runs or records. ± marks the error that the study gave.

| Compound | test | system | setting | scale | quantity | result |
| --- | --- | --- | --- | --- | --- | --- |
| CCOc1c([C@H](C)n2nc(C)c3c(N)ncnc32)cc(Cl)c(F)c1[C@@H]1CNC(=O)C1 | measured: QTcF above 500 ms | previously treated B-cell malignancy | oral, 30 mg once daily, baseline QTcF ≤450 ms | – | ECG observations | 0% |
| CCO[C@H]1CCN(Cc2c(OC)cc(C)c3[nH]ccc23)[C@H](c2ccc(C(=O)O)cc2)C1 | – | PNH patients, active haemolysis | oral, 100 mg, 8 weeks, treatment | – | incidence impaired fasting glucose | 14.3% |
| CC(C)(C)OC[C@@H]1C(=O)NCCN1C(=O)C[C@H](N)Cc1cc(F)c(F)cc1F | measured: blood and lymphatic disorders | healthy Korean men | oral, dose not given | – | number of TEAEs | 1 |
| C[C@@H]1OC(=O)[C@H](Cc2ccccc2)[C@H]1O | aerobic dark soil incubation | clay soil | 20 °C, persistence endpoint | – | DT50 | 0.13 days |
| C=CCn1c(=O)c2cnc(Nc3ccc(N4CCN(C)CC4)cc3)nc2n1-c1ccc2c(n1)[C@@](O)(CC)CC2 | – | A-427, female NOD/SCID mouse xenograft, plasma | oral, 40 mg/kg once daily | – | Cmax | 2000 ng/mL |
| Cn1cc(Nc2nccc(-c3ccc4c(c3)CN(C3COC3)CC[C@H]4NC(=O)c3cn(C(C)(C)C)nn3)n2)cn1 | – | human, whole blood | 300 mg twice daily, day 14 | relative to: pre-dose baseline | plasmablast count change | -19.9% |
| O=C1CCc2ccc(OCCCCN3CCN(c4cccc(Cl)c4Cl)CC3)cc2N1 | measured: Constipation | genotyped patients, CYP2D6 intermediate metabolizers | dose not given, long-acting oral or depot | – | adverse event incidence | 10% |
| COc1ccc(C[C@@H](C)[C@@H](C)Cc2ccc(OC)c(OC)c2)cc1OC | – | beagle dog female, plasma | oral, 300 mg/kg/day, day 28 | – | AUC(0-t) | 18100 ± 7470 ng·h/mL |
| COc1ccc(CNc2nc(-c3ccc(C(=O)O)cc3)nc3c2c2ccccc2n3C)cc1Cl | – | NSG mice | dose not given, day 6 of treatment | – | body weight | 21.4 g and 24.1 g and 23 g and 22.8 g |
| O=C1NCCc2nc(OCc3cccc(F)c3)ccc21 | measured: loss of Righting | Sprague-Dawley rat male | oral, 100 mg/kg, 30 min | direction not given | Irwin test score | 0 |
| CSc1cc(C)nc(SC)c1NC(=O)CN1CCN(CCSc2nc3ccccc3[nH]2)CC1.Cl | – | mouse, olfactory bulb | intranasal, 10 µL in 0.01 N HCl daily, 120 min, 7 days dosing | – | concentration | not detected |
| CNC(=O)c1ccc(-c2cnc3ncc(Cc4ccc5ncccc5c4)n3n2)cc1F | – | human severe hepatic impairment | oral, 200 mg single dose, covariate-adjusted geometric mean | – | AUC(0-inf) | 9130 ng·h/mL |
| Cn1cncc1-c1c(F)cncc1NC(=O)c1c(N)nn2cc(F)cnc12 | – | patients, advanced solid tumours | oral, 180 mg once daily | relative to: patients | grade ≥2 adverse events | 60% |
| O=C(Nc1nc2cccc(-c3ccc(CN4CCS(=O)(=O)CC4)cc3)n2n1)C1CC1 | measured: somnolence | rheumatoid arthritis patients | oral, 30 mg once daily, 4 weeks, any relatedness | – | treatment-emergent adverse events | 0% |
| CC(=O)O[C@H]1C(=O)[C@@]2(C)[C@H]([C@H](OC(=O)c3ccccc3)[C@]3(O)C[C@H](OC(=O)[C@H](O)[C@@H](NC(=O)c4ccccc4)c4ccccc4)C(C)=C1C3(C)C)[C@]1(OC(C)=O)CO[C@@H]1C[C@@H]2O | measured: peripheral neuropathy | patients with advanced solid tumours | intravenous, dose not given, grade 3 and 4, possibly related to drug | – | adverse event incidence | 4% |
| Cc1ccc(Sc2ccccc2N2CCNCC2)c(C)c1 | measured: blood uric acid increased | healthy adult women | oral, 10 mg daily, 12 days | – | participants with TEAE | 0% |
| NC1(C(=O)N[C@@H](CCO)c2ccc(Cl)cc2)CCN(c2nc[nH]c3nccc2-3)CC1 | – | metastatic CRPC patients | 400 mg b.i.d., any grade, treatment-related, added: enzalutamide 160 mg daily | – | incidence of Arthralgia | 0% |
| CCc1cc(C(=O)NC)c2nccc(N3CCc4c(cc(Cn5ccnc5)cc4-c4cn(C)nc4C(F)(F)F)C3=O)c2c1 | – | Sprague Dawley rats | oral, 100 mg/kg once daily, 7 days | relative to: vehicle | serum RBC change | -1.93% |

Repeated from above:
| Compound | test | system | setting | scale | quantity | result |
| --- | --- | --- | --- | --- | --- | --- |
| CCO[C@H]1CCN(Cc2c(OC)cc(C)c3[nH]ccc23)[C@H](c2ccc(C(=O)O)cc2)C1 | – | PNH patients, active haemolysis | oral, 100 mg, 8 weeks, treatment | – | incidence impaired fasting glucose | 14.3% |
